Assay results of several laboratories.
Lines come from different studies, so protocols differ. Numbers after ± are the reported error.

Cc1ccc(F)c2cc(C(=O)N[C@@H]3CCC[C@H](N4CC[C@H](N(C)S(C)(=O)=O)C4)C3)[nH]c12  MRT(0-inf) (CD1 mouse; oral, 30 mg/kg): 3.4 h
Cc1cc(C)c(CNC(=O)c2cc(Cl)c3c(c2C)O[C@@](C)([C@H]2CC[C@H](N(C)C)CC2)O3)c(=O)[nH]1  Hypercalcaemia incidence (human, relapsed/refractory NHL; concentration not given, treatment-related TEAEs, grade 5): 0%
Cn1cncc1-c1c(F)cncc1NC(=O)c1c(N)nn2cc(F)cnc12  grade ≥3 creatinine increase incidence (human patients; oral, 80 mg once daily): 0%
CC[C@H](C)[C@H](NC(=O)[C@H](Cc1ccccc1)NC(=O)[C@H](CCC(=O)O)NC(=O)[C@H](CCCNC(=N)N)NC(=O)[C@H](C)NC(=O)[C@H](C)NC(=O)[C@H](CCC(N)=O)NC(=O)[C@H](CCC(=O)O)NC(=O)[C@H](CCC(=O)O)NC(=O)[C@H](CC(C)C)NC(=O)[C@H](Cc1ccc(O)cc1)NC(=O)[C@H](CO)NC(=O)[C@H](CO)NC(=O)[C@@H](NC(=O)[C@H](CC(=O)O)NC(=O)[C@H](CO)NC(=O)[C@@H](NC(=O)[C@H](Cc1ccccc1)NC(=O)[C@@H](NC(=O)CNC(=O)[C@H](CCC(=O)O)NC(=O)[C@H](C)NC(=O)CCc1cnc[nH]1)[C@@H](C)O)[C@@H](C)O)C(C)C)C(=O)N[C@@H](C)C(=O)N[C@@H](Cc1c[nH]c2ccccc12)C(=O)N[C@@H](CC(C)C)C(=O)N[C@H](C(=O)N[C@@H](CCCNC(=N)N)C(=O)NCC(=O)N[C@@H](CCCNC(=N)N)C(=O)N[C@@H](CCCCNC(=O)COCCOCCNC(=O)COCCOCCNC(=O)CC[C@H](NC(=O)CCCCCCCCCCCCCCCCC(=O)O)C(=O)O)C(=O)NCC(=O)NCC(=O)N[C@@H](CO)C(=O)N[C@@H](CCSC)C(=O)N[C@H](C(=O)N[C@@H](CCCCNc1c(NCCCCCN(O)C(=O)CCC(=O)NCCCCCN(O)C(=O)CCC(=O)NCCCCCN(O)C(C)=O)c(=O)c1=O)C(=O)O)C(C)C)C(C)C [zirconium-89 labelled]  tissue uptake (ex vivo gamma counting; male Sprague-Dawley rats, kidney; intravenous, 1 nmol, 24 h, mean of 3 animals): 4.79 ± 0.11 %ID/g
Cc1nonc1Cn1nnc2c(N3CC[C@H](O)C3)nc(C(C)(C)C)nc21  oral bioavailability (C57BL/6 mice; oral, dose not given): 44%
CCC[C@@](N)(CO)CCc1ccc(OCCCCCC(C)C)cc1  half-life (dog, male hounds, plasma; oral capsule, 5 mg/kg, median): 13.6 h
CCN1CCN(Cc2ccc(Nc3ncc(F)c(-c4cc(F)c5nc6n(c5c4)[C@H](C)CCC6)n3)nc2)CC1  Hypertriglyceridemia incidence, grade ≥3 (advanced solid tumour patients; dose not given, Phase Ia monotherapy): 4.2%
CCCC1CCC(C2CCC(c3ccc(F)c(F)c3)CC2)CC1 (centres unmarked)  placental accumulation (rat, placenta; 10 ng/mL in perfusate, low dose, mixture of 21 LCMs): 1.23 ± 2.36 ng/g
COc1cc2c(Oc3ccc4[nH]c(C)cc4c3F)ccnc2cc1OCC1(N)CC1  incidence of adverse event (measured: grade 1 or 2 abdominal distension; paediatric high-risk refractory sarcoma; whole group): 5.9%
O=S(=O)(Nc1ccccc1)c1ccc(NC(=S)Nc2ccccc2)cc1  mean platelet volume (mouse, female, blood; oral, 20 mg/kg daily, 14 days): 6.28 fL
CC(C)[C@@H]1NC(=O)CNC(=O)[C@H](CC(N)=O)NC(=O)[C@H](CCCNC(=N)N)NC(=O)[C@H](Cc2ccc(O)cc2)NC(=O)[C@H](C(C)C)NC(=O)[C@@H](NC(=O)[C@@H](NC(=O)[C@H](CC(N)=O)NC(=O)[C@H](Cc2c[nH]c3ccccc23)NC(=O)[C@H](C)NC(=O)[C@H](Cc2ccccc2)NC(=O)CN)C(C)C)CSSC[C@@H](C(=O)N[C@@H](Cc2cnc[nH]2)C(=O)N[C@@H](CCCNC(=N)N)C(=O)N[C@@H](CCCNC(=N)N)C(=O)N[C@@H](C)C(=O)N[C@@H](CC(N)=O)C(N)=O)NC(=O)[C@H](C(C)C)NC(=O)[C@H](CCCNC(=N)N)NC1=O  ALT (ICR mice, serum; intraperitoneal, 5 mg/kg, day 5): 48 ± 3.26 IU/L
O=C(Nc1ccccc1)C1CCN(C(=O)Oc2cccnc2)CC1  change in Calm-excited score (Bond-Lader VAS; healthy women; 60 mg; relative to: pre-dose baseline, direction not given): -15
O=c1ccc2ncc(=O)n3c2n1C[C@H]3CN1CCC(NCc2cc3c(cn2)OCCC3)CC1  incidence of nervous system disorders (healthy human volunteers; oral, 1500 mg, rifampicin cohort, added: rifampicin 600 mg): 12%
CC(=O)c1c(C)c2cnc(Nc3ccc(C4CCN(CCS(C)(=O)=O)CC4)cn3)nc2n(C2CCCC2)c1=O  maximum tolerated dose (Sprague-Dawley rat, both sexes; oral, 4 weeks, repeated dosing): 60 mg/kg
Clc1ccc(Cl)c(-c2cc(Cl)ccc2Cl)c1  concentration (Sprague Dawley rat female, serum; intraperitoneal, 10 mg/kg, 3 weeks): 4 ng/g
COc1cc(C(=O)NC2CCN(C)CC2)c(F)cc1Nc1ncc(C(F)(F)F)c(Oc2cccc3c2C(=O)N(C)C3)n1  fraction excreted in urine (0-24 h) (human patients, urine; oral, 100 mg single dose, geometric mean; relative to: dose): 6.23%
S=c1oc(-c2ccccc2)nn1CN1CCN(Cc2ccccc2)CC1  serum ALP (Wistar rat female; oral, 300 mg/kg, acute toxicity OECD 423): 12.6 ± 1.07 KA/dL
C=CC(=O)N1CC[C@H](n2nc(C#Cc3cc(OC)cc(OC)c3)c3c(N)ncnc32)C1  adverse drug reaction incidence (patients with advanced solid tumours; oral, dose not given, Vomiting, any grade, QD, added: lanthanum carbonate hydrate): 16.7%
N#Cc1cc(NC(=O)[C@H]2c3ccccc3C(=O)N(CC(F)(F)F)[C@@H]2c2cccnc2)ccc1F  dose (Beagle dog; no respiratory or methemoglobin change): 100 mg/kg
CN1CC[C@@H](c2c(O)cc(O)c3c(=O)cc(-c4ccc(C(F)(F)F)cc4Cl)oc23)[C@@H]1CO  patients with adverse event (measured: Epistaxis; B-cell malignancies; oral, 150 mg, intermittent dosing): 0%
CN1C(=O)[C@@H](NC(=O)c2nnc(Cc3ccccc3)[nH]2)COc2cccnc21  participants with TEAE leading to death (phase I multiple ascending dose; human, male and female; oral, 200 mg, 14 days): 0%
C[C@]1(O)C[C@@](N)(c2ccc(-c3nc4n(c3-c3ccccc3)COc3ccncc3-4)cc2)C1  patients with Pruritus TEAE (human, advanced or metastatic solid tumours; once daily, dose escalation total, any grade): 11.1%
[O-][S+]1CCc2nc(N3CCC(c4ncc(Cl)cn4)CC3)nc(NC3(CO)CCC3)c21 (centres unmarked)  aspartate aminotransferase (measured: mean; idiopathic pulmonary fibrosis patients, blood; 18 mg twice daily, at last treatment): 14.4 U/L
C[C@@H]1OC(=O)NN=C1c1ccc(-c2ccc(F)cc2)c(C(F)(F)F)c1  patients with adverse event (phase I trial, measured: Fatigue worst grade 1; human patients; 5 mg once daily): 0%
Cc1cn([C@H]2O[C@@H](CO[P@@](=O)(N[C@@H](C)C(=O)OC(C)C)Oc3ccccc3)[C@H](O)[C@H]2F)c(=O)[nH]c1=O  patients with TEAE (measured: ALT/AST elevated; human; 25 mg): 0%
COc1ccc2nc3cc(Cl)ccc3c(Nc3cc(CN4CCCC4)c(O)c(CN4CCCC4)c3)c2n1  urea level (mouse, blood; intraperitoneal, 57 mg/kg): 2.56 µmol/L
CO[C@H]1C[C@@H]2CC[C@@H](C)[C@@](O)(O2)C(=O)C(=O)N2CCCC[C@H]2C(=O)O[C@H]([C@H](C)C[C@@H]2CC[C@@H](OC(=O)NCCOCCOCCOCCOCCOCCOCCOCCOCCC(=O)N3CCc4cc(Cn5nc(-c6ccc7oc(N)nc7c6)c6c(N)ncnc65)ccc4C3)[C@H](OC)C2)C[C@@H](O)[C@H](C)/C=C(\C)[C@@H](O)[C@@H](OC)C(=O)[C@H](C)C[C@H](C)/C=C/C=C/C=C/1C  constipation incidence (patients with advanced solid tumours; intravenous, 6 mg weekly, grade 3 or higher): 0%
COc1ncccc1-c1cnn2ccc(N3CCN(C(=O)OC(C)C)CC3)nc12  drug concentration (mouse nerve ligation model, brain; oral, 3 mg/kg, 120 min after last dose, repeat dosing day 2): 2800 nM
CCCCCOc1ccc(-c2ccc(-c3ccc(C(=O)N[C@H]4C[C@@H](O)[C@@H](OCC[N+](C)(C)C)NC(=O)[C@@H]5[C@@H](O)[C@@H](C)CN5C(=O)[C@H]([C@@H](C)O)NC(=O)[C@H]([C@H](O)[C@@H](O)c5ccc(O)cc5)NC(=O)[C@@H]5C[C@@H](O)CN5C(=O)[C@H]([C@@H](C)O)NC4=O)cc3)cc2)cc1  alanine aminotransferase (adult ICU patients, mITT, serum; dose not given, day 14): 20.5 U/L
CC(C)C[C@H](NC(=O)[C@H](CCCCN)NC(=O)OCC1c2ccccc2-c2ccccc21)C(=O)N[C@H](C(=O)N[C@@H](Cc1ccccc1)C(=O)N[C@@H](Cc1ccccc1)C(=O)N[C@@H](CCCCN)C(=O)NCC(=O)N[C@@H](Cc1ccccc1)C(=O)N[C@@H](C)C(=O)N[C@@H](Cc1c[nH]c2ccccc12)C(=O)N[C@@H](CC(N)=O)C(=O)N[C@H](C(=O)N[C@H]1CSSC[C@@H](C(=O)N[C@@H](Cc2c[nH]cn2)C(=O)N[C@@H](CCCNC(=N)N)C(=O)N[C@@H](CCCNC(=N)N)C(=O)N[C@@H](C)C(=O)N[C@@H](CC(N)=O)C(N)=O)NC(=O)[C@H](C(C)C)NC(=O)[C@H](CCCNC(=N)N)NC(=O)[C@H](C(C)C)NC(=O)CNC(=O)[C@H](CC(N)=O)NC(=O)[C@H](CCCNC(=N)N)NC(=O)[C@H](Cc2ccc(O)cc2)NC(=O)[C@H](C(C)C)NC1=O)C(C)C)C(C)C  basophils (ICR mice, blood; intraperitoneal, 5 mg/kg, day 5): 1.47 ± 0.09%
NCCCS(=O)(=O)O  Cmin (human, plasma; oral, 265 mg twice daily, pre-dose, steady state week 65): 148 ng/mL
C[C@]1(CO)Cc2ncn(-c3ccc(C#N)c(Cl)c3)c2C(=O)O1  subjects with drug-related dysgeusia (human; 80 mg single dose): 14.3%
COc1ccc(-c2c(-c3ccc(C#N)c(F)c3)nc(N3CCC(N)CC3)n(C)c2=O)cc1F  treatment-related adverse event incidence (measured: Anemia; neuroendocrine neoplasm patients; oral, 60 mg, any grade, dose expansion): 25%
Fc1ccc([C@@H]2CCNC[C@H]2COc2ccc3c(c2)OCO3)cc1  List of Complaints score (measured: Cough; healthy volunteers; oral, dose not given, given -1 h relative to LSD, added: LSD; direction not given): 1 score
O=C1Nc2cc3[nH]nc(-c4ccncc4)c3cc2CN1Cc1ccccc1  patients with diarrhoea (CTCAE v4.03; advanced solid tumour patients; intravenous, 4.8 mg/kg): 33%
O=[N+]([O-])c1ccc2c(c1)S(=O)(=O)C=C2  CD8+ cells (flow cytometry; male C57BL/6 mice, spleen; i.p., 20 mg/kg, 8 days; relative to: CD45+ cells): 12.2%
CC(C)(C)c1cc(-n2nc3ccccc3n2)c(O)c(C(C)(C)C)c1  mass recovery (EpiSkin reconstructed epidermis; 36 h): 58.5%
CCN(CCO)CCCC(C)Nc1ccnc2cc(Cl)ccc12 (centres unmarked)  creatinine increased patients (newly diagnosed glioblastoma patients; oral, 200 mg/dose, grade 1, added: radiotherapy plus temozolomide): 33%
